Measurements of several laboratories.
A part holds a random share of what one study measured. Changes are numbered by the printed parent chain.

Sample 1
Target: CCND3, cyclin fold, Cln2 fusion (human)
Technique: yeast growth competition, sequencing
Sample: yeast
Notes: weak parent motif
Baseline: not given
Reading: higher = stronger binding
Parent: BRCA2 docking peptide (human); PSIKRNLLNEFDR
For `K4F`, “normalised enrichment score” read 0.0743.
For `K4Y`, “normalised enrichment score” read 0.107.
Under “normalised enrichment score”, `E10I` is recorded as 0.077.
Under “normalised enrichment score”, `N6C` is recorded as -0.00718.
For `N9W`, “normalised enrichment score” read 0.129.

Sample 2
Target: Sal-like protein 4, full length isoform B (SALL4, Homo sapiens, UniProt Q9UJQ4-2, residues 1-616)
Technique: universal PBM
Molecule type: double-stranded DNA, one strand shown
Sample: in vitro
Tested at: not given
Notes: 8-mer, flanks averaged, mean of replicates
Reading: higher = stronger binding
The E-score of `TATCCTCA` is reported as 0.152.
`ATCAAAAC` has an E-score of 0.19.
The E-score of `ACGGGTAC` is reported as -0.186.
The E-score of `AAGTCTCT` is reported as -0.0143.
The E-score of `ACGGCCCC` is reported as -0.342.
With `AGATCACC` the E-score was -0.0706.

Sample 3
Target: Interferon regulatory factor 3, full length, phosphomimetic (IRF3, Homo sapiens, UniProt Q14653, residues 1-427, S386D/S396D/S398D/S402D/T404D/S405D)
Chain of UniProt Q14653 (whole entry, unmodified, looked up): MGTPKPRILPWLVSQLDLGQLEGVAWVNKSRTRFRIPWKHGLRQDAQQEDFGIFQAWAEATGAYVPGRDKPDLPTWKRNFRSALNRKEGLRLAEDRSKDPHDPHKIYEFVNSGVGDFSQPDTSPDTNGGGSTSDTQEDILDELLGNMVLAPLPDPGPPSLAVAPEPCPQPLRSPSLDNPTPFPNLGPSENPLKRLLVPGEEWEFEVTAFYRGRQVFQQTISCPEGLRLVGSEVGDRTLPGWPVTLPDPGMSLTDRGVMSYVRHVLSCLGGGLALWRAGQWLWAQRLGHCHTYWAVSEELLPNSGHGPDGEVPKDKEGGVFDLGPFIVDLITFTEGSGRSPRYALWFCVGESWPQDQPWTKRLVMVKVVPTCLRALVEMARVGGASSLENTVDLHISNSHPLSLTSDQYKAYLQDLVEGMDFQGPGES
Technique: protein-binding microarray
Molecule type: double-stranded DNA, one strand shown
Sample: in vitro
Tested at: 2540 nM top
Notes: 60-bp whole probe
Together with: salmon DNA 0.4 mg/ml
Baseline: random background probes
Reading: higher = stronger binding
For `GCCTAGCACCGTTTTTCATTTTTTTTTTCGTGCTAGGTCTTGATTCGCTTGACGCTGCTG`, “fitted relative affinity” read 3.4 z-score.
`GCCTAGCACTTCGATATCGGGACTGGATTAGTGCTAGTCTTGATTCGCTTGACGCTGCTG`: “fitted relative affinity” 0.372 z-score.
Under “fitted relative affinity”, `GCCTAGCACTTAGATTTCAGCCTCGATTAGTGCTAGGTCTTGATTCGCTTGACGCTGCTG` is recorded as 0.13 z-score.
`GCCTAGCACTTAGGTTTCCTTATCTTTTAGTGCTAGGTCTTGATTCGCTTGACGCTGCTG` — result for “fitted relative affinity”: 7.44 z-score.

Single results of other studies
`PhoQ, residues 284 288 289 292 302 303 NLGVHL` gave a fold induction of 12.9 (PhoP, residues 12 14 15 18 19 TTLRV (Escherichia coli, UniProt P23836); Sort-seq, item: YFP reporter; E. coli; PhoQ-PhoP variant library, together with: 10 µM Mg2+; baseline: high Mg2+ state, higher = stronger signaling).
